Experimental data collected from several papers.
Every numbered part comes from another study and shows a few of its results, in no order.

Set 1
Target: RING finger protein unkempt homolog, zinc fingers 1-6, GST-SBP tag (UNK, Homo sapiens, UniProt Q9C0B0, residues 30-357)
Sequence of UniProt Q9C0B0 (30-357, looked up): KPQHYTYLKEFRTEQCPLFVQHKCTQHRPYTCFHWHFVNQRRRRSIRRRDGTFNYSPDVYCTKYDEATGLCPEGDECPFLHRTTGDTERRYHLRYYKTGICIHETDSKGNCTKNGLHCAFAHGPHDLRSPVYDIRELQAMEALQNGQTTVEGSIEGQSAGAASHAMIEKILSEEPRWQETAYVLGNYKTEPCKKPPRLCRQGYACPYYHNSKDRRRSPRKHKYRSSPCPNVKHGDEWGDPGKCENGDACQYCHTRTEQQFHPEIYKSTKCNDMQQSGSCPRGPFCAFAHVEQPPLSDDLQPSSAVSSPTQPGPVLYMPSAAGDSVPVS
Method: RNA Bind-n-Seq
Form: RNA
Matrix: in vitro
Concentration: not given
Notes: RNA with constant flanks, human and mouse sites, ends assumed
Relative to: input RNA pool
Direction: higher = stronger binding
Endpoint: bound/input enrichment
All sequences stand within: GGGAGUUCUACAGUCCGACGAUC … CAACAGAGGAUUGAGCAUCA
UUGAAUGGUUUGGAAUAUGUGCCACAAAGACUGAAAAAUCUUAAUGAAAUUAAUAAGCUGCUAGCACAUCGACCUUGGCUGAUCACAAAAGAGCACAUUCAGAAACUUGUCAAAACUGGA: 0.3 ratio
AUUAUGAAAACAAAGAAGUGGGCAGUAGAGCGAACACGAACCAUCCAAGGACUCAUUGACUUCAUCAAAAAGUUUCUUAAACUUGUGGCCUCAGAACAGUUGUUUAUUUAUGUGAAUCAG: 0.198 ratio
UUUUUGAAGGGUGUGAUGCUUGGAAGCAUUUUCUGUGCUUUGAUCACUAUGCUAGGACACAUUAGGAUUGGUCAUGGAAAUAGAAUGCACCACCAUGAGCAUCAUCACCUACAAGCUCCU: 0.192 ratio
CUCAGAAUAAAGUCAGAGCUUGGAUUAAAUUUCUAUCAGCAAGUGAAGCUGGUCAAUUUCAUUAGAAGGCAAGUUCACCAAUGCAAGUGCUACAGUUGCCAUGUAAAGUUCAAAUCCAAA: 0.335 ratio
GUUCCUUUCGGCAGUGCUGCGUGCCCAGAUUCUUAAUAACAUUAAGUCUGUUACUGUGUAUAGCAAUGGUUUAUAUUUCAUUAUGCUACUAAAGGUUCAUCUUUUCUACAUUAAAAAUAU: 0.222 ratio
GCUCCCACUGCAGCCUCGAGUGCCCCUGUCCCACCUGGCUCCCCCUGCUGGUGUCUAGUGUUUUUUUCCCUCUCCUGUCCUUGUGUUGAAGGCAGUAAACUAAGGGUGUCAAGCCCCAUU: 1.45 ratio
CCGUGUGACCCUUGGGCUUUCAGCGUGCACUCAGUUCCGUAGGAUUCCAAAGCAGACCCCUAGCUGGUCUUUGAAUCUGCAUGUACUUCACGUUUUCUAUAUUUGUAACUUUGCAUGUAU: 0.175 ratio
CACUCUUCUGAUAAAGUAUCUAAACUAGAAGGCCAAGUCGAAUCUUAUAAGAAGAAGCUGGAAGACCUUGGAGAUUUGAGGCGGCAGGUUAAGCUCUUGGAAGAAAAGAAUACGAUGUAC: 0.273 ratio
GGGUAGAUAGAGUAGUAUAUGUGGGGGUGGGAGGGUAUGGGAGUUUAAUUUGUAUAAACCACUGAUGUUCUGUGAAAUCGGAAUUUCCAGCUACAUUUCAUAUAGCUUCUGAAUAUUCAG: 92.2 ratio
CAAUUUGAAGCUCCUUCUCCAUCACACAGUAGCAUUAUUGAUUCUACAGAAUACAGCCAACCUCCAGGUUUCAGUGGGACCUCUCAGACAAAGAAACAGCCUUGGUAUAACAGCACAUUA: 0.792 ratio
ACCUCAUACCGUAUAAAUGUAAUCUCUCUGAUGCCAUUUAAUGCAGUGGACCUCUUUUCAGAAUCUAAUUGUCAGAUGCAGAAUUAACACUUGGAAUCUGGAGAAGCAUUUUGUACAAAU: 0.196 ratio

Set 2
Target: Ras GTPase-activating protein-binding protein 1, full length (G3BP1, Homo sapiens, UniProt Q13283)
Sequence of UniProt Q13283 (whole entry, looked up): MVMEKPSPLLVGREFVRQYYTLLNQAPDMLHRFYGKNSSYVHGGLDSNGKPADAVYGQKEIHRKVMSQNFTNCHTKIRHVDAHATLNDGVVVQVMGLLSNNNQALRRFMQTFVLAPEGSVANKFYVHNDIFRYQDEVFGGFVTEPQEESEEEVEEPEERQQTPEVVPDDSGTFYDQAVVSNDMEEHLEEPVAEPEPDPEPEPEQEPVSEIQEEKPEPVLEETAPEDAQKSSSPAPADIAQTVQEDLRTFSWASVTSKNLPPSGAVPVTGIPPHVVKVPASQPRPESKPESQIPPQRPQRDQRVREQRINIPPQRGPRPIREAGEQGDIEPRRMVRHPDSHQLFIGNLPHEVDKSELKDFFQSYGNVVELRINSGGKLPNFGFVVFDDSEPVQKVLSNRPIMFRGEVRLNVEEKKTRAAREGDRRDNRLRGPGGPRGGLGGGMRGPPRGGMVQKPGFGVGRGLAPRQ
Method: RNA Bind-n-Seq
Form: RNA
Matrix: in vitro
Concentration: 200 nM
Notes: whole 134-nt RNA, ends assumed
Added: 150 mM LiCl
Relative to: input library
Direction: higher = stronger binding
Endpoint: log2 enrichment
Each molecule: 7-deaza-guanosine replaces G
All sequences stand within: GGGAGUUCUACAGUCCGACGAUC … UGGAAUUCUCGGGUGUCAAGG
UCCUGUGCUACACAUCGUAUGUACCGAAUCAAAUUUUUAAAUUUUUAAAUUUUUUUAAAAAAGUAUUAUGUUACGCCGUUCGGAUCUGCA: -2.02
AGUCCUGUGCUACACAUCGUAUGUACCGAAUCGGUUUUUGGAAAAAAAGGAAAAAGGAAAGUAUUAUGUUACGCCGUUCGGAUCUGCACU: -2.4
GUCCUGUGCUACACAUCGUAUGUACCGAAUCGGGGAGGGGAAAGGGGAAAAAAAGGGGAAAGUAUUAUGUUACGCCGUUCGGAUCUGCAC: 0.712
CCUCAAGUCCUGUGCUACACAUCGUAUGUACCGAAUCGGUUUGGUUUGGAGGAAAGUAUUAUGUUACGCCGUUCGGAUCUGCACUUCCAG: -0.184
GUCCUGUGCUACACAUCGUAUGUACCGAAUCGGGGUUUUGGGGUUUUGGGGUUUUGGGAAAGUAUUAUGUUACGCCGUUCGGAUCUGCAC: 0.163
UCAAGUCCUGUGCUACACAUCGUAUGUACCGAAUCGGGGUUUGGGUUUGGUUUGGAAAGUAUUAUGUUACGCCGUUCGGAUCUGCACUUC: -0.25
UCAAGUCCUGUGCUACACAUCGUAUGUACCGAAUCGGGCCCGGGCCCGGGCCCGGAAAGUAUUAUGUUACGCCGUUCGGAUCUGCACUUC: 0.0647
AGUCCUGUGCUACACAUCGUAUGUACCGAAUCAAAUUUAAACCCCCAAACCCCCAAAAAAGUAUUAUGUUACGCCGUUCGGAUCUGCACU: 0.897
UGGCCCUGGUGGCAUGCGGGGAGGAAGAGGUGGCCUCAUGGAUCGUGGCGGUCCCGGUGGAAUGUUCAGAGGUGGCCGUGGUGGAGACAG: 0.418
CCUGUGCUACACAUCGUAUGUACCGAAUCGGGGAAAAAGGGGAAAGGGGAAAAAAAGGGGAAAGUAUUAUGUUACGCCGUUCGGAUCUGC: 0.909
UCAAGUCCUGUGCUACACAUCGUAUGUACCGAAUCGGGAAGGGGAAGGGAAGGGGAAAGUAUUAUGUUACGCCGUUCGGAUCUGCACUUC: 0.0255

Set 3
Target: Centromere-binding protein 1, full length, N-terminal tag (CBF1, Saccharomyces cerevisiae, UniProt P17106, residues 1-351)
Sequence of UniProt P17106 (whole entry, looked up): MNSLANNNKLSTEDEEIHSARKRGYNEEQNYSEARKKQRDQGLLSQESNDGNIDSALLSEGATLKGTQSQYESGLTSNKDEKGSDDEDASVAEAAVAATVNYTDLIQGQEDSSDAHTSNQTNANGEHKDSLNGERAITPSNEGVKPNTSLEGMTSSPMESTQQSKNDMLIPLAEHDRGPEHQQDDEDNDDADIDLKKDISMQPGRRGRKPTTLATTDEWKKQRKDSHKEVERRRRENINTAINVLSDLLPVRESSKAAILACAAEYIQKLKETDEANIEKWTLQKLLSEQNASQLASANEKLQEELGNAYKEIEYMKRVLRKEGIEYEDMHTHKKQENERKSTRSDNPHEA
Method: protein-binding microarray
Form: double-stranded DNA, one strand shown
Matrix: in vitro
Concentration: 0.8 µM
Notes: whole 60-bp probe, no competitor
Direction: higher = stronger binding
Endpoint: fluorescence intensity
All sequences stand within: … GTCTTGATTCGCTTGACGCTGCTG
CTAATAATAGTGGTCCATGTGACATCTTTATAATTC: 2890 a.u.
TGTACGAAGCTATGTGATTAAAATATAGTAGTTAGG: 579 a.u.
CTATTTTTAGGACGTGACCAAATGCGAGCTGCATTC: 2360 a.u.
CTATGATTTCCCAGTCACGGATTCCTTTTGAGATTC: 800 a.u.
GAATAGAAAAGTTATCACCAGAGTAAAAAGGAGTAG: 575 a.u.
GAAACAATATACACGCGCGTGCGTAGATATATATAG: 968 a.u.
GAACGTGGAGCGCTTCACGTGAAAAGAGTGGCCTAG: 2290 a.u.
TGTACGAAGCTATCTACCGTGCCTATAGTAGTTAGG: 497 a.u.
CCTAACTACTATAACGTGTCAGCATAGCTTCGTACA: 595 a.u.
GAATATTACCTGACTCAGGTGATGGAGTGCTCATAG: 614 a.u.
GAAAAGAAGTTCGGTGCCGTGATTATATGCTTATAG: 535 a.u.
CTAAAAAAGAACAAATACATCACGAAGACAGAATTC: 622 a.u.
CTAATTTGGCATGGTGTGGTGATGTCTCTTTTCTTC: 541 a.u.
TGTACGAAGCTATATCAGATGGTTATAGTAGTTAGG: 594 a.u.
GAATTAGGCTTTGAACGCGTGCTATGGAAAAAATAG: 708 a.u.
GAAAAAGCTCTCCCCCTCGTGTAATTATGCACGTAG: 557 a.u.
GAAATCGGGCGTTTCCACGTGTACAAGAACCTGTAG: 3930 a.u.

Set 4
Target: RNA binding protein fox-1 homolog 2, RRM domain, GST-SBP tag (RBFOX2, Homo sapiens, UniProt O43251-10, residues 100-194)
Method: RNA Bind-n-Seq
Form: RNA
Matrix: in vitro
Concentration: 365 nM
Notes: natural RNA segment, single round, ends assumed
Relative to: no-protein control
Direction: higher = stronger binding
Endpoint: RBNS enrichment (R)
All sequences stand within: GGGAGUUCUACAGUCCGACGAUC … UGGAAUUCUCGGGUGCCAA
Target sequence (chain): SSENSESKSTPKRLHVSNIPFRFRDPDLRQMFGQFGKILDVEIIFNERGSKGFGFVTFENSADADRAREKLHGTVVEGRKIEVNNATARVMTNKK
AACGAGAAGAGAUGCCACAGUGUAUCGUGUCUCUAGUUGUAUUGUAUACCUGCUUAACAUCUGCGACAUUUCUCUCCCAAGUCAUUUGCCCCUUCCCGGAAUUUAAACAA: 0.465
GGGAGACCCAGAGUUCAGGCUACACACAGCUGUAAAACAGCCCCAAUCCUGACUCUGGCUAUUCGCUUCCCACCCUCUCCUUUCACUGUGAUGUGUUCCAGGUUUAGCCU: 0.248
UGUUAACCUUUAUGUCAGCCAUCGUCAGUUUCAACAUCUAGACCUAAAUAGAAAGUUAGCUGUUCCGCAGACAGGCGUAGUCUUGAGUGUCCUGUGUGGUCAGUGGCAGU: 1.3
CUACAGACCAAAAUCCACUUGUCAGCAGGAGCAGCAGCCCAGGCCCAGCACCAGCGGUCUUCCGGCUCCUCUGAGGGCUGCCACGUUGGGCGAGGGGAGCCAUGCCAAGG: 0.292
UGGUCACCUGUGCCCCUCGUGUCUCCUCACAUGGGUGUCUGUGGUUCUCUCCUGUGUAAAUGUCACGCCCCACCCCUGUUUCAUGUGGGCACUAACACGUGUGCGUUCCU: 0.33
UCCCUCUCCAAAUAAUACACAGAAUCCUGCAACUUUUUGCACAGCUGGUAUCUGUCUGGUAGCAGUGAGACCCCUUGUCUUGGUGAUCCUUACUGGGUUUCCAAGCAGAG: 0.231
GUGACUUGGGUCUCAGUGCUAGGGUAUUGAGUCAGGCAGCUGGAGGGUUGUGGCCCGAGGCUGCAGUCAGAGGUAUACUUCCCAUAGUGCUUCACACAGCUCCCCUGCUU: 0.379
CCCCUUCUCCCCCCAUCAAAACGCUCAGAGACGUUGUGAUGAUGCGACUGAGGAUUAUGCAACGUGGUCCAACCGGAGCGGCCAGCAUGACCAGCUGUCCAGGGGCUGCC: 4.41
CCUUGCCCUUUGAGAGUGUCCAUUGCUGGCCAUGGUCACUAAAUUUGAAGUUCCAGUCCUCCCUUUGGAGUGGACAUUUAAAAUCUGCAGCCAUUCCUUGCUUCAGUUCC: 0.306
CUAGUUCUAUCAAAUACCUUAUUUUACCUUUGCCAUACUUGCUGCACAAGCAGACACUGCUGGACUUAGAAGUUUCUAUUUGAGUUCCUUAAACUACAAAACUAAUAUGU: 0.486
AAGCUGACAUAGUGUGAUUUGCCAUGUAAUGUUUAUAGCUGCUGCUGUCUGCACAUUUGGGGGUCUCUAUAUUUCUGAAGAGGUAAGCUGAUGAAAAUAAAUAGAGUGUA: 0.768
UGAGGCCCUAAGGUCUCAGUGCAUAGCAUACCUGCCACUCUGGAUGUUUUCCUGGGCUUCAUAUCUGUAUGGCAAGGAGGGAGCUGUCCUUCAGCAGACAAAGUCAAGCA: 2.16

Repeated from above (set 4):
CUAGUUCUAUCAAAUACCUUAUUUUACCUUUGCCAUACUUGCUGCACAAGCAGACACUGCUGGACUUAGAAGUUUCUAUUUGAGUUCCUUAAACUACAAAACUAAUAUGU: 0.486
UGGUCACCUGUGCCCCUCGUGUCUCCUCACAUGGGUGUCUGUGGUUCUCUCCUGUGUAAAUGUCACGCCCCACCCCUGUUUCAUGUGGGCACUAACACGUGUGCGUUCCU: 0.33
CCUUGCCCUUUGAGAGUGUCCAUUGCUGGCCAUGGUCACUAAAUUUGAAGUUCCAGUCCUCCCUUUGGAGUGGACAUUUAAAAUCUGCAGCCAUUCCUUGCUUCAGUUCC: 0.306
